Experimental data from different studies.
Compare with care: the assays were run in different laboratories. ± gives the spread as reported. Values after ≈ are worked out from the molar mass of the structure shown.

Molecule	tested on	assay	system	conditions	how to read	quantity	result
CCOC(=O)c1c(N)csc1-c1cn(-c2ccccc2)nc1-c1ccc(C)cc1	Klebsiella pneumoniae	broth microdilution	clinical urinary isolate	compound gamma-irradiated 0 kGy	–	MIC	0.25 ± 0.5 µg/mL (≈ 0.62 µM)
Nc1ncnc2c1ncn2CCOCP(=O)(O)O	herpes simplex virus 2	cytopathic effect	HEL, clinical isolate PB	–	–	EC50	5.2 ± 3.2 µg/mL
O=c1ccc2ccccc2o1	CYP2A6 human	7-hydroxylation, substrate	human liver microsomes	CYP2A6 added 54 pmol/mg, ratio 0.125	–	Hill coefficient	1.57 ± 0.35
Nc1ncnc2c1c(-c1cccnc1)cn2[C@@H]1O[C@H](CO)[C@@H](O)[C@H]1O	Trichomonas vaginalis	resorufin	G3, metronidazole-sensitive	24 h + 2 h, 2% O2	–	EC50	8540 ± 962 nM
CC(=O)Nc1cccc(OCc2nnc(SCc3ccccc3Cl)o2)c1	–	forced swimming test	mice	40 mg/kg, 0.5 h	baseline: control	immobility duration decrease	53.5%
Nc1ccn(C[C@@H](CO)OCP(=O)(O)O)c(=O)n1	herpes simplex virus 1	cytopathic effect	primary human keratinocytes, KOS	72 h	–	EC50	1.4 ± 0.03 µg/mL
COc1ccc(-c2cn([C@@H]3O[C@H](CO)C[C@H]3O)c3ncnc(N)c23)cc1Cl	Trichomonas vaginalis	resorufin	G3, metronidazole-sensitive	24 h + 2 h, 2% O2	–	EC50	3060 ± 410 nM
CC(=NNC(=S)NN=C(C(=NO)c1ccccc1)c1ccccc1)c1ccccc1C	MCF7	Western blot, item: Bcl-2	–	IC50 concentration, 24 h	baseline: untreated	relative protein level	0.61 ± 0.06
CC(C)N(CCC1CC2CN(Cc3ccc(C#N)cc3)CC2C1)C[C@H]1O[C@@H](n2cnc3c(N)ncnc32)[C@H](O)[C@@H]1O (stereo partly drawn)	human DOT1L R231Q	inhibitor, western blot, item: H3K79me2 over histone H3	H460 DOT1L R231Q	concentration not given	baseline: cpd over SGC0946	H3K79me2 level ratio	2.07
COc1cc(-c2cn([C@@H]3O[C@H](CO)C[C@H]3O)c3ncnc(N)c23)ccc1Cl	Trichomonas vaginalis	resorufin	G3, metronidazole-sensitive	24 h + 2 h, 2% O2	–	EC50	1750 ± 150 nM
CC(C)C[C@H](NC(=O)[C@H](CO)NC(=O)[C@H](CCCNC(=N)N)NC(=O)[C@H](CC(=O)O)NC(=O)[C@H](CCC(=O)O)NC(=O)[C@H](C)NC(=O)[C@@H]1CCCN1C(=O)[C@H](C)NC(=O)[C@H](CCC(=O)O)NC(=O)[C@@H]1CCCN1C(=O)[C@@H]1CCCN1)C(N)=O	–	HPLC-EC	F344 rat, normal, substantia nigra	intranasal, 100 µg, 5 days/week, 3 weeks	–	dopamine level	481 ± 83 ng/g
Cc1ccc(-c2cn([C@@H]3O[C@H](CO)[C@@H](O)[C@H]3O)c3ncnc(N)c23)cc1	Trichomonas vaginalis	resorufin	G3, metronidazole-sensitive	24 h + 2 h, 2% O2	–	EC50	68 ± 9 nM
CC(C)(C)C(=O)Nc1ccc2[nH]c(CN3CCC(N(CCC(=O)N4CCSCC4)C[C@H]4O[C@@H](n5cnc6c(N)ncnc65)[C@H](O)[C@@H]4O)CC3)nc2c1	human DOT1L R231Q	inhibitor, western blot, item: H3K79me2 over histone H3	H460 DOT1L R231Q	concentration not given	baseline: cpd over SGC0946	H3K79me2 level ratio	0.854
Cc1noc(C)c1-c1cnc2c(-c3ccc(C(=O)O)cc3)cn([C@@H](C)c3ccccn3)c2c1	–	–	C57BL/6 mouse, Eµ-TCL1 adoptive transfer	oral, 20 mg/kg daily	–	median overall survival	41 days
VCTGSC	–	inhibitor, light transmission aggregometry	peptide, human platelet-rich plasma	500 µg/mL, together with: ADP 4 µM	–	platelet aggregation	inactive

Some of these lines once more:
Molecule	tested on	assay	system	conditions	how to read	quantity	result
Cc1noc(C)c1-c1cnc2c(-c3ccc(C(=O)O)cc3)cn([C@@H](C)c3ccccn3)c2c1	–	–	C57BL/6 mouse, Eµ-TCL1 adoptive transfer	oral, 20 mg/kg daily	–	median overall survival	41 days
